Experimental data gathered from unrelated publications.
Compare with care: the assays were run in different laboratories. ± marks the error that the study gave.

`Clc1cc(Cl)c(-c2cc(Cl)c(Cl)c(Cl)c2Cl)cc1Cl` gave a log K(PDMS-water) of 6.54 ± 0.1 (fresh water; 12 (unit not given), 20 °C, SSP sampler, 100 µm).
Under “log retention factor”, `CC[C@H](C)[C@H](NC(=O)[C@H](CO)NC(=O)[C@H](CCCNC(=N)N)NC(C)=O)C(=O)N[C@H]1CSSC[C@@H](C(=O)N[C@H](C(N)=O)[C@@H](C)O)NC(=O)[C@H](CCCNC(=N)N)NC(=O)[C@H](Cc2c[nH]cn2)NC(=O)[C@H](Cc2cccc3ccccc23)NC(=O)CNC(=O)[C@H](Cc2c[nH]c3ccccc23)NC(=O)[C@H](CC(=O)O)NC(=O)[C@H](CCC(N)=O)NC(=O)[C@H](Cc2c[nH]c3ccccc23)NC(=O)[C@H](C(C)C)NC1=O` is recorded as 0.417 (isocratic RP-HPLC; C18 column; pH 7.4, 25 °C, elution method 2; higher = more lipophilic).
The log K(PDMS-water) of `Clc1ccc(-c2cc(Cl)c(Cl)c(Cl)c2Cl)cc1Cl` is reported as 6.41 ± 0.06 (fresh water; 20 °C, S100 sampler, 100 µm).
For `C=CC[C@@]1(C)NC(=O)CNC(=O)[C@H](Cc2c[nH]c3ccccc23)NC(=O)[C@H](CC(=O)O)NC(=O)[C@H](CCC(N)=O)NC(=O)[C@H](Cc2c[nH]c3ccccc23)NC(=O)[C@H](C(C)C)NC(=O)[C@@H](NC(=O)[C@@H](NC(C)=O)[C@@H](C)CC)CSSC[C@@H](C(=O)N[C@H](C(N)=O)[C@@H](C)O)NC(=O)[C@H](CCCNC(=N)N)NC(=O)[C@H](Cc2c[nH]cn2)NC1=O`, “log retention factor” read 0.136 (isocratic RP-HPLC; C18 column; pH 7.4, 25 °C, elution method 2; higher = more lipophilic).
For `c1ccc2c(c1)ccc1cc3c(ccc4ccccc43)cc12`, the log K(PDMS-water) was 5.26 ± 0.21 (fresh water; 12 (unit not given), 20 °C, S100 sampler, 100 µm).
`COc1cccc2c1[n+]([O-])c1cccc(OC(=O)N(C)C)c1[n+]2[O-]` — result for “log effective permeability”: -5.3 (PAMPA; artificial membrane in PBS; 50 µM, 5 h).
Under “log retention factor”, `CC[C@H](C)[C@H](NC(=O)[C@H](CO)NC(=O)[C@H](CCCNC(=N)N)NC(C)=O)C(=O)N[C@H]1CSSC[C@@H](C(=O)N[C@H](C(N)=O)[C@@H](C)O)NC(=O)[C@H](CCCNC(=N)N)NC(=O)[C@H](Cc2c[nH]cn2)NC(=O)[C@H](C)NC(=O)CNC(=O)[C@H](Cc2c[nH]c3ccccc23)NC(=O)[C@H](CC(=O)O)NC(=O)[C@H](CCC(N)=O)NC(=O)[C@H](Cc2ccc(O)cc2)NC(=O)[C@H](C(C)C)NC1=O` is recorded as -0.509 (isocratic RP-HPLC, C18; 32% acetonitrile, phosphate pH 7.4, 1% TFA; 25 °C).
For `CN1CC[C@]23c4c5ccc(O)c4O[C@H]2[C@@H](O)CC[C@@]3(O)[C@H]1C5`, “log k protonation constant” read 9.36 (phenolate site).
`CC(=O)N[C@@H](CC(N)=O)C(=O)N[C@@H](CCCNC(=N)N)C(=O)N[C@@H](CC(C)C)C(=O)N[C@H]1CSSC[C@@H](C(=O)N[C@H](C(N)=O)[C@@H](C)O)NC(=O)[C@H](CCCNC(=N)N)NC(=O)[C@H](Cc2c[nH]cn2)NC(=O)[C@H](C)NC(=O)CNC(=O)[C@H](Cc2c[nH]c3ccccc23)NC(=O)[C@H](CC(=O)O)NC(=O)[C@H](CCC(N)=O)NC(=O)[C@H](Cc2c[nH]c3ccccc23)NC(=O)[C@H](C(C)C)NC1=O` — result for “log retention factor”: -0.267 (isocratic RP-HPLC; C18 column; pH 7.4, 25 °C, elution method 2; higher = more lipophilic).
`CN1CCN(C(=O)Oc2cccc3c2[n+]([O-])c2cc(Br)c(Br)cc2[n+]3[O-])CC1`: “log effective permeability” -4.88 (PAMPA; artificial membrane in PBS; 50 µM, 5 h).
With `Clc1cc(-c2cc(Cl)c(Cl)c(Cl)c2)cc(Cl)c1Cl` the log K(PDMS-water) was 6.28 ± 0.06 (fresh water; 20 °C, S30-2 sampler, 30 µm).
`CC[C@H](C)[C@H](NC(=O)[C@H](CCCNC(=N)N)NC(=O)[C@H](CCC(=O)O)NC(C)=O)C(=O)N[C@H]1CSSC[C@@H](C(=O)N[C@H](C(N)=O)[C@@H](C)O)NC(=O)[C@H](CCCNC(=N)N)NC(=O)[C@H](Cc2c[nH]cn2)NC(=O)[C@H](C)NC(=O)CNC(=O)[C@H](Cc2c[nH]c3ccccc23)NC(=O)[C@H](CC(=O)O)NC(=O)[C@H](CCC(N)=O)NC(=O)[C@H](Cc2c[nH]c3ccccc23)NC(=O)[C@H](C(C)C)NC1=O`: “log retention factor” -0.499 (isocratic RP-HPLC; C18 column; pH 7.4, 25 °C, elution method 2; higher = more lipophilic).
`CN1CCN(C(=O)Oc2cccc3c2[n+]([O-])c2ccccc2[n+]3[O-])CC1` — result for “log effective permeability”: -4.85 (PAMPA; artificial membrane in PBS; 50 µM, 5 h).
`CN1CC[C@]23c4c5ccc(O)c4O[C@H]2[C@@H](O)CC[C@H]3[C@H]1C5`: “log k amino protonation” 9.49.
Under “log Freundlich coefficient”, `CNC(=O)Oc1cccc2c1OC(C)(C)C2O` (stereo not shown) is recorded as 1.49 (SPME sorption isotherm; PBS).
`CC(=O)N[C@@H](CC(N)=O)C(=O)N[C@@H](CCCNC(=N)N)C(=O)N[C@@H](CC(C)C)C(=O)N[C@H]1CSSC[C@@H](C(=O)N[C@H](C(N)=O)[C@@H](C)O)NC(=O)[C@H](CCCNC(=N)N)NC(=O)[C@H](Cc2c[nH]cn2)NC(=O)[C@H](Cc2cccc3ccccc23)NC(=O)CNC(=O)[C@H](Cc2c[nH]c3ccccc23)NC(=O)[C@H](CC(=O)O)NC(=O)[C@H](CCC(N)=O)NC(=O)[C@H](Cc2cccc3ccccc23)NC(=O)[C@H](C(C)C)NC1=O`: “log retention factor” 0.863 (isocratic RP-HPLC, C18; 32% acetonitrile, phosphate pH 7.4, 1% TFA; 25 °C).
For `CN1CC[C@]23c4c5ccc(O)c4O[C@H]2[C@@H](O)C=C[C@H]3[C@H]1C5`, “log tautomerization constant” read -0.43.
For `Clc1cc(Cl)c(-c2ccc(Cl)c(Cl)c2Cl)cc1Cl`, the log K(PDMS-water) was 6.42 ± 0.06 (fresh water; 20 °C, S30-1 sampler, 30 µm).
`CC(=O)N[C@@H](CC(N)=O)C(=O)N[C@@H](CC(N)=O)C(=O)N[C@@H](CC(C)C)C(=O)N[C@H]1CSSC[C@@H](C(=O)N[C@H](C(N)=O)[C@@H](C)O)NC(=O)[C@H](CCCNC(=N)N)NC(=O)[C@H](Cc2c[nH]cn2)NC(=O)[C@H](C)NC(=O)CNC(=O)[C@H](Cc2c[nH]c3ccccc23)NC(=O)[C@H](CC(=O)O)NC(=O)[C@H](CCC(N)=O)NC(=O)[C@H](Cc2c[nH]c3ccccc23)NC(=O)[C@H](C(C)C)NC1=O` — result for “log retention factor”: -0.402 (isocratic RP-HPLC, C18; 32% acetonitrile, phosphate pH 7.4, 1% TFA; 25 °C).
`Cc1c(C)[n+]([O-])c2c(OC(=O)N3CCOCC3)cccc2[n+]1[O-]` — result for “log effective permeability”: -4.65 (PAMPA; artificial membrane in PBS; 50 µM, 5 h).
For `CN1CC[C@]23c4c5ccc(O)c4O[C@H]2[C@@H](O)C=C[C@@]3(O)[C@H]1C5`, “log k amino protonation” read 9.08 (phenolate protonated).
`CC(C)c1ccc(NC(=O)N(C)C)cc1`: “log Freundlich coefficient” 2.36 (SPME sorption isotherm; PBS).
`c1ccc2c(c1)-c1ccc3ccc4cccc5cc-2c1c3c45` has a log K(PDMS-water) of 5.54 ± 0.08 (fresh water; 20 °C).
Under “log retention factor”, `CC[C@H](C)[C@H](N)C(=O)N[C@H]1CSSC[C@@H](C(=O)N[C@H](C(N)=O)[C@@H](C)O)NC(=O)[C@H](CCCN=C(N)N)NC(=O)[C@H](Cc2cnc[nH]2)NC(=O)[C@H](Cc2cnc[nH]2)NC(=O)CNC(=O)[C@H](Cc2c[nH]c3ccccc23)NC(=O)[C@H](CC(=O)O)NC(=O)[C@H](CCC(N)=O)NC(=O)[C@H](C(C)C)NC(=O)[C@H](C(C)C)NC1=O` is recorded as -0.44 (isocratic RP-HPLC; C18 column; pH 7.4, 25 °C, elution method 2; higher = more lipophilic).
`c1ccc2c(c1)cc1ccc3cccc4ccc2c1c34` has a log K(PDMS-water) of 5.21 ± 0.04 (fresh water; 12 (unit not given), 20 °C).
`[O-][n+]1c2cccc(O)c2[n+]([O-])c2cccc(O)c21`: “log effective permeability” -5.64 (PAMPA; artificial membrane in PBS; 50 µM, 5 h).
`CCC(C)(c1ccc(O)cc1)c1ccc(O)cc1` — result for “log D octanol/water”: 4.13 (octanol/water).
The log K(PDMS-water) of `Clc1ccc(-c2cc(Cl)c(Cl)c(Cl)c2)cc1Cl` is reported as 5.81 ± 0.17 (fresh water; 20 °C, SSP sampler, 100 µm).
